Literature values that unrelated publications cite.
Cell line: MDA-MB-231

With `O=c1c2ccc(-n3cc(-c4ccccc4)nn3)cc2ncn1Cc1ccc(Br)cc1` the IC50 was 3.21 µM.
`COc1cc(Nc2nnc(-c3cc4ccccc4[nH]3)s2)cc(OC)c1OC` gave an IC50 of 0.44 µM (cytotoxicity).
`Cc1ccc(-n2cc(CN3CCN(C(=O)c4nc5ccccc5n4C)CC3)nn2)cc1` has an IC50 of 2.02 µM (cell growth).
`CC1=C(C)C(=O)OC(C(C)(O)C2CCC3C4CC5OC56C(O)C=CC(=O)C6(C)C4CCC32C)C1` (stereo not drawn) gave an IC50 of 0.6 µM (cell growth).
For `O=C(N/N=C\c1c[nH]c2ccccc12)c1c[nH]c2ccccc12`, the IC50 was 1 µM.
For `O=C1NCC(Cc2ccccc2)N(CC2CCCN2CC(CC2CCCCC2)N2CC(Cc3ccc(O)cc3)N(CCc3ccccc3)C(=O)C2=O)C1=O` (stereo not drawn), the IC50 was over 100 µM (viability).
The EC50 of `Cc1ccc2c(n1)c1nc(C)ccc1c1nc3cc4ccccc4cc3nc21.[Ru+2].c1ccc(-c2cccc(-c3ccccn3)n2)nc1.c1ccncc1` is reported as 34 µM (cell viability; dark).
For `CC1=C(CO)C(=O)O[C@@H]([C@@H](C)[C@H]2CC[C@H]3[C@@H]4C[C@H]5O[C@]56[C@@H](O)C=CC(=O)[C@]6(C)[C@H]4CC[C@]23C)C1`, the IC50 was 0.04 µM (cell growth).
The IC50 of `Oc1cccc(-c2cccc(O)n2)n1.[Cl-].[Cl-].[Ru+2].c1cnc2c(c1)ccc1cccnc12.c1cnc2c(c1)ccc1cccnc12` is reported as 280 µM (cell viability; dark).
The IC50 of `C=CC(=O)N(c1cccc2ccccc12)S(=O)(=O)c1ccc(OC)cc1` is reported as 2.85 µM (cell growth).
`[Cl-].[Cl-].[Ru+2].c1ccc(-c2ccccn2)nc1.c1ccc(-c2ccccn2)nc1.c1cnc2c(c1)ccc1cccnc12` gave an IC50 of over 100 µM (light irradiation).
The IC50 of `CCC(CCC(C)C1CCC2C3CCC4=CC(=O)CCC4(C)C3CCC12C)C(C)C` (stereo not drawn) is reported as 128 µM.

Excerpt of the above:
For `CC1=C(CO)C(=O)O[C@@H]([C@@H](C)[C@H]2CC[C@H]3[C@@H]4C[C@H]5O[C@]56[C@@H](O)C=CC(=O)[C@]6(C)[C@H]4CC[C@]23C)C1`, the IC50 was 0.04 µM (cell growth).
For `O=C(N/N=C\c1c[nH]c2ccccc12)c1c[nH]c2ccccc12`, the IC50 was 1 µM.
